Assay results of several laboratories.
Parts stem from different laboratories: compare values within a part only. Changes are numbered by the printed parent chain.

Sample 1
Target: Sal-like protein 4, full length isoform B (SALL4, Homo sapiens, UniProt Q9UJQ4-2, residues 1-616)
Technique: universal PBM
Molecule type: double-stranded DNA, one strand shown
Sample: in vitro
Tested at: not given
Notes: 8-mer, flanks averaged, mean of replicates
Reading: higher = stronger binding
The E-score of `AGCTATAC` is reported as 0.138.
With `CAGTCAAG` the E-score was -0.104.
For `CAGGCCAC`, the E-score was -0.295.
The E-score of `GTAACGGA` is reported as -0.0582.
`TAATTGAA` gave an E-score of 0.277.
The E-score of `CACGACGC` is reported as -0.256.
The E-score of `AGGCAACA` is reported as -0.119.
`ATCAACTA` has an E-score of 0.265.
`ACGGCAGC` has an E-score of -0.214.
The E-score of `GTAGGAAC` is reported as 0.0981.
`CATGAGGC` gave an E-score of -0.209.
For `CATTGCCA`, the E-score was 0.0533.
`ATAAGGTC` gave an E-score of 0.162.
With `ACTACCAG` the E-score was -0.163.
For `CACGATGC`, the E-score was -0.176.
With `TGAATCCA` the E-score was 0.131.
`GCTCGTGA` gave an E-score of -0.192.
With `GCGAGTTA` the E-score was -0.0258.
With `TGAAGACA` the E-score was 0.122.

Sample 2
Target: CCND1, cyclin fold, Cln2 fusion (human)
Technique: yeast growth competition, sequencing
Sample: yeast
Notes: weak parent motif
Relative to: not given
Reading: higher = stronger binding
Starting sequence: CDC6 docking peptide (human); TLKGRRLVFDNQL; partner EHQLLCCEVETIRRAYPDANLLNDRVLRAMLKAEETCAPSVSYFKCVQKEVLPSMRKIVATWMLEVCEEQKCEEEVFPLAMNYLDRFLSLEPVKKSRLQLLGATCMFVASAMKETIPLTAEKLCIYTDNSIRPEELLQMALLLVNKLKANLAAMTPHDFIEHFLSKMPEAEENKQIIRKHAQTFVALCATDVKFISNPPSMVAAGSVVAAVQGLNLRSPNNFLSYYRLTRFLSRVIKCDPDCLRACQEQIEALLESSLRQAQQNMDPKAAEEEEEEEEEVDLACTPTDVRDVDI
Under “normalised enrichment score”, `D10W` is recorded as 0.247.
`V8M`: “normalised enrichment score” -0.275.
`T1C`: “normalised enrichment score” -0.0167.
Under “normalised enrichment score”, `F9V` is recorded as -0.509.
`R6F` — result for “normalised enrichment score”: 0.139.
For `Q12N`, “normalised enrichment score” read -0.131.
Under “normalised enrichment score”, `Q12K` is recorded as -0.345.
`L7R`: “normalised enrichment score” 0.241.
`L2N`: “normalised enrichment score” -0.282.
For `Q12E`, “normalised enrichment score” read 0.526.
Under “normalised enrichment score”, `N11D` is recorded as 1.19.
Under “normalised enrichment score”, `K3T` is recorded as 0.789.
Under “normalised enrichment score”, `L2S` is recorded as -0.304.
`T1I` — result for “normalised enrichment score”: 0.0886.
`N11Q`: “normalised enrichment score” 0.544.
`D10C`: “normalised enrichment score” 0.426.
For `R6K`, “normalised enrichment score” read 0.0257.
`F9Y` — result for “normalised enrichment score”: -0.151.
`L13C`: “normalised enrichment score” 0.572.
`R5L`: “normalised enrichment score” 0.34.
`Q12D`: “normalised enrichment score” 1.84.
`L7S` — result for “normalised enrichment score”: -0.17.
Under “normalised enrichment score”, `G4N` is recorded as 0.523.
`V8L`: “normalised enrichment score” 0.562.
`G4V` — result for “normalised enrichment score”: 0.141.

Sample 3
Target: RNA binding protein fox-1 homolog 2, RRM domain, GST-SBP tag (RBFOX2, Homo sapiens, UniProt O43251-10, residues 100-194)
Technique: RNA Bind-n-Seq
Molecule type: RNA
Sample: in vitro
Tested at: 365 nM
Notes: natural RNA segment, single round, ends assumed
Relative to: no-protein control
Reading: higher = stronger binding
Residues (chain): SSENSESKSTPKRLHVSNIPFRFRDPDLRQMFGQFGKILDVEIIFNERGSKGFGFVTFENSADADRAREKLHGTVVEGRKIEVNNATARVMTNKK
For `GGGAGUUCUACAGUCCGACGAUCUCUUCUUCCCUCAACUUCUUCACCCCUGAAGGACGACUGUCUGCAGAUGUUGCAGGACCUUGUUUUAAAAUCAACUCCCUUCUCUCCCAGCGGGGGGCCUCUUCCUUCCUUGGAAUUCUCGGGUGCCAA`, “RBNS enrichment (R)” read 0.324.
`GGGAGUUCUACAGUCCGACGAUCUCGCUUGGUAGGUGUAAGUAAUAGCAGCCCUUAGCCACGGAGUCUUUAUGUGGUUUAUUCCUGCAAGGUUGUUUUAAACUGAAAUAGAACUGCUAGUGUGAUUGGUUGAUUGGAAUUCUCGGGUGCCAA`: “RBNS enrichment (R)” 1.
Under “RBNS enrichment (R)”, `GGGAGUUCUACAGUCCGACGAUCGUGACCUCCACUAACCCCCACUUCCAUGCAUAUUGACGAGGGAUCUAGUCUAAGUAAGAAUGUCUUUUGCCUGCGCGUGGAGGCACAGUAGAAAUCUCAAGGCUUUACCCUGGAAUUCUCGGGUGCCAA` is recorded as 0.781.
For `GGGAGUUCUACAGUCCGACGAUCACCACCUUUUACUGCACAAUUCACAAGCAUGUUUUCCUGGUGAAUUGGACUGAAAAUUACAUUUUGACAACUUUUUUUCCUUUUAUCCCCAACUUUUGCCAGAAAGCAGAUGGAAUUCUCGGGUGCCAA`, “RBNS enrichment (R)” read 4.57.
For `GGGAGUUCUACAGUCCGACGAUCUUUGACUCACUUCAGACCAUCUUCCACACACUAUGUCUGUGCUUGGAGAGGGGAGGUGGCUCUCCAGUGUAAAACUUGAGGCAUUCACUAGAGGUGAAAACUUGUCAGAAUGGAAUUCUCGGGUGCCAA`, “RBNS enrichment (R)” read 0.372.
`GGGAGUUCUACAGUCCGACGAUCAGUUUUCUGUAAUUCUCCCCCUCUUUAAAAACAUCACUGAAAUUUCAAUAAAUUUUUAUUGAAAUGAGUUUUGAAGUUGUGGUAAUGAUUUCUUCAAGAGUUGUCUUUCAUGGAAUUCUCGGGUGCCAA`: “RBNS enrichment (R)” 0.396.
For `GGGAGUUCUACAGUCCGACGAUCUAUUGCCAAAUGCUCUUUCUGAAAAUGCUGAAUUGCCUUUUUUGUUUGCAUCCUUUAUUUUUAAUAUUCAUAAUGUCGUGUGCUUAAAAGUGGGCUUUGAAGUGUGUGCUUGGAAUUCUCGGGUGCCAA`, “RBNS enrichment (R)” read 0.719.
`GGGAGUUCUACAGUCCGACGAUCUAGAUCUCUGUCUUCAGUCUCAUUUAAAGUCUUCAUGAAAUGCUGUGCCAUUUCAUGUCCUGUGUCAGUUUAUGUUUUGGUCCACUUUUCCAGUAUUUUAGUGGACCCUGUGGAAUUCUCGGGUGCCAA`: “RBNS enrichment (R)” 0.56.
`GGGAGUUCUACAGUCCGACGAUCUUGUUUAGCUAGUGAAUGUGACAAUAUAUUUUAUGUAUAUAAUGAGUCUAAUGUAAUUUUGAUCAACUUGGUAAUGAUGUUAUUAAAUAGCAAAACAAGUGCAGUGUAUUUGGAAUUCUCGGGUGCCAA` — result for “RBNS enrichment (R)”: 3.5.
Under “RBNS enrichment (R)”, `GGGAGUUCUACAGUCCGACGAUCGUUCAUUGUUUGCCCUGCUAGGAAUUAGAAGACAGACACCAUGUCCCAGGACAGUGUUACUUCUUCUGCAUGAUGUGUGGUAGACUCCCUUUGCUGGCUUGUGCAGUGAUUGGAAUUCUCGGGUGCCAA` is recorded as 13.9.
`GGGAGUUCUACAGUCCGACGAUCCAGUCCUUUAUCUGGAGGGAAAAGUCUGAUGCCAGCAGAGGUCCUGGGGCGCUGCUCUCCCAGGUCCUGGUCAGACUCAGCUCCAUAGCUCUUGGAGGCUUUCCCUGGAUUGGAAUUCUCGGGUGCCAA` — result for “RBNS enrichment (R)”: 0.719.
`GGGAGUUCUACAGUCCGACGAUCCAGCUAAUUUUUGUAUUUUUAUAGAGAUGGAGUUUUGCCAUGUUGGCCAGCCUGGUCUUGAACUCUUGAACUCCUGACCUCAGGUAAUCCACCCACCUCAGACUCCCAAAUGGAAUUCUCGGGUGCCAA` — result for “RBNS enrichment (R)”: 0.429.

Sample 4
Target: Histone acetyltransferase KAT6A, winged helix 2, GST fusion (KAT6A, Homo sapiens, UniProt Q92794, residues 85-181)
Technique: protein binding microarray
Molecule type: double-stranded DNA, one strand shown
Sample: in vitro
Tested at: not given
Notes: 8-mer, flanks averaged, mean of 2 arrays, mostly near background
Relative to: not given
Reading: higher = stronger binding
Residues (chain): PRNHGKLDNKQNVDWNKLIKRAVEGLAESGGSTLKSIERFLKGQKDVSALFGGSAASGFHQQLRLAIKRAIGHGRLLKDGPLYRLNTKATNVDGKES
With `GACGGTAC` the E-score was 0.0334.
For `CTGTACTC`, the E-score was -0.0694.
`CGACAGCA` has an E-score of 0.115.
The E-score of `ACAGTACC` is reported as -0.0879.
The E-score of `AATACAGC` is reported as 0.00132.
With `ACAACAGC` the E-score was -0.0789.
`GCTCCTGA` gave an E-score of 0.0625.
With `GGACCTAC` the E-score was -0.0073.
`CAAGTCTC` has an E-score of -0.2.
For `CACATACC`, the E-score was 0.0506.
With `ACGCTCTC` the E-score was -0.09.
The E-score of `ACAGGTCA` is reported as -0.161.
`CCAATCTC` gave an E-score of -0.0839.
`CGGTGAGC` gave an E-score of 0.0667.
With `AAGTATGT` the E-score was -0.245.
`CAAGAAAG` gave an E-score of 0.179.
For `CGTGACAC`, the E-score was 0.0578.
`AGCCACTA` has an E-score of -0.0409.
The E-score of `ACTGCTCT` is reported as 0.0906.
With `ACCATGTA` the E-score was -0.15.

Sample 5
Target: Eukaryotic initiation factor 4A-I (EIF4A1, Homo sapiens, UniProt P60842, residues 1-406, full length assumed)
Sequence of UniProt P60842 (whole entry, looked up): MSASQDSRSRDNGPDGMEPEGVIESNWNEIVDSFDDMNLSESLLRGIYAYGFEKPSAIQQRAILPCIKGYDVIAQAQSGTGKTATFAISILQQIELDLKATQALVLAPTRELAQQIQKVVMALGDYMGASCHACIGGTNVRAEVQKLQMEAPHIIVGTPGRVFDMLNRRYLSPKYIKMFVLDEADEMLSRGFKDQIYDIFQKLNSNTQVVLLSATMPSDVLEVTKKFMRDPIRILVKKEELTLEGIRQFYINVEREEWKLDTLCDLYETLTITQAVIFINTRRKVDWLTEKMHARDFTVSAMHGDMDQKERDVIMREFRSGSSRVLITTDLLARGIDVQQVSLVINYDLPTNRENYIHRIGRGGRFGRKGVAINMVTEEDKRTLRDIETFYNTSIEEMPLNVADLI
Technique: RNA Bind-n-Seq
Molecule type: RNA
Sample: in vitro
Tested at: 15 pmol
Notes: 4-mer, random 30-nt RNA, single round
Added: DMSO vehicle, 2 mM AMP-PNP
Relative to: input library
Reading: higher = stronger binding
For `ACUC`, the 4-mer enrichment was 1.1 fold.
For `AUCC`, the 4-mer enrichment was 1.28 fold.
For `GGGU`, the 4-mer enrichment was 0.901 fold.
The 4-mer enrichment of `ACUU` is reported as 0.878 fold.
For `CGCC`, the 4-mer enrichment was 1.99 fold.
The 4-mer enrichment of `GCGA` is reported as 1.12 fold.
With `CUGG` the 4-mer enrichment was 1.41 fold.
With `GAGC` the 4-mer enrichment was 1 fold.
With `CACC` the 4-mer enrichment was 1.55 fold.
`CAGC` gave a 4-mer enrichment of 1.61 fold.
`ACCU` gave a 4-mer enrichment of 1.09 fold.
The 4-mer enrichment of `ACGC` is reported as 1.31 fold.
With `CCCA` the 4-mer enrichment was 1.23 fold.
For `CUAA`, the 4-mer enrichment was 0.859 fold.
`ACCA` gave a 4-mer enrichment of 2.6 fold.
`UACA` has a 4-mer enrichment of 0.677 fold.
The 4-mer enrichment of `UAAU` is reported as 0.829 fold.
`GCCU` has a 4-mer enrichment of 1.47 fold.

Repeated from above (sample 2):
`L2N`: “normalised enrichment score” -0.282.
`V8M`: “normalised enrichment score” -0.275.
Under “normalised enrichment score”, `L2S` is recorded as -0.304.
`T1I` — result for “normalised enrichment score”: 0.0886.
For `Q12E`, “normalised enrichment score” read 0.526.
Under “normalised enrichment score”, `D10W` is recorded as 0.247.
`L13C`: “normalised enrichment score” 0.572.
`D10C`: “normalised enrichment score” 0.426.
`G4V` — result for “normalised enrichment score”: 0.141.
